Experimental data gathered from unrelated publications.
± marks the error that the study gave.

Substance | test | test system | setting | endpoint | result
COc1cccc2c1C(=O)c1c(O)c3c(c(O)c1C2=O)C[C@@](O)(C(=O)CO)C[C@@H]3O[C@H]1C[C@H](NC(=O)[C@H](CC(C)C)NC(=O)[C@H](C)NC(=O)[C@H](CC(C)C)NC(=O)CCNC(=O)CCC(=O)O)[C@H](O)[C@H](C)O1 |  | mouse, E0771 tumour-bearing, kidney | intravenous, 92 µmol/kg | terminal half-life | 10.7 h
CCN1C(=CC=CC=CC2=[N+](CCCCCC(=O)NCCCC[C@H](NC(=O)CN3CCN(CC(=O)O)CCN(CC(=O)O)CCN(CC(=O)O)CC3)C(=O)NCC(=O)NCC(=O)N[C@@H](Cc3ccc(O)cc3)C(=O)NCC(=O)N[C@H]3CSSC[C@@H]4NC(=O)CNC(=O)[C@H](C)NC(=O)[C@H](CC(C)C)NC(=O)[C@@H]5CSSC[C@@H](C(=O)NCC(N)=O)NC(=O)[C@H](Cc6ccccc6)NC(=O)CNC(=O)[C@H](CC(N)=O)NC(=O)[C@@H]6CCCN6C(=O)CNC(=O)[C@H](CSSC[C@H](NC(=O)[C@H](CO)NC(=O)[C@H]([C@@H](C)O)NC(=O)[C@@H]6CCCN6C(=O)[C@H](C)NC(=O)[C@H](Cc6c[nH]c7ccccc67)NC(=O)[C@H](CC(=O)O)NC(=O)CNC(=O)[C@H](CCCNC(=N)N)NC(=O)CNC(=O)[C@H](CCC(N)=O)NC(=O)[C@@H]6CCCN6C3=O)C(=O)N[C@@H](CO)C(=O)N[C@@H](CCC(N)=O)C(=O)N[C@@H](CC(=O)O)C(=O)N[C@@H](CO)C(=O)N[C@@H](CC(=O)O)C(=O)N5)NC(=O)[C@H](C(C)C)NC4=O)c3ccc4c(S(=O)(=O)[O-])cc(S(=O)(=O)O)cc4c3C2(C)C)C(C)(C)c2c1ccc1c(S(=O)(=O)O)cc(S(=O)(=O)O)cc21 (single isomer, unassigned) [copper-64 labelled] |  | nude mouse, kidney | intravenous, 100 µCi, 1 h | tissue uptake | 78.4 ± 13.9 %ID/g
N=C(N)NCCC[C@@H]1NC(=O)[C@H](CCCCNC(=O)CNC(=O)CNC(=O)CNC(=O)CC[C@H](NC(=O)CCOCCOCCOCCOCCNC(=O)c2ccc(NN)nc2)C(=O)NCC(=O)NCC(=O)NCC(=O)NCCCC[C@@H]2NC(=O)[C@@H](Cc3ccccc3)NC(=O)[C@H](CC(=O)O)NC(=O)CNC(=O)[C@H](CCCNC(=N)N)NC2=O)NC(=O)[C@@H](Cc2ccccc2)NC(=O)[C@H](CC(=O)O)NC(=O)CNC1=O [technetium-99m labelled] | γ-counting | female athymic nude mice, U-87 MG xenograft, eyes | intravenous, 2 h | tissue uptake | 1.22 ± 0.02 %ID/g
COc1cccc2c1C(=O)c1c(O)c3c(c(O)c1C2=O)C[C@@](O)(C(=O)CO)C[C@@H]3O[C@H]1C[C@H](NC(=O)[C@@H]2CCCN2C(=O)CNC(=O)[C@H](CC(C)C)NC(=O)[C@H](C)NC(=O)CP(=O)(O)O)[C@H](O)[C@H](C)O1 |  | mouse, E0771 tumour-bearing, liver | intravenous, 92 µmol/kg | terminal half-life | 16.8 h
Cc1ccccc1NC(=O)Nc1ccc(CC(=O)N[C@@H](CCCCNC(=O)/C=C/c2cccnc2)C(=O)N[C@@H](CCCC(=O)O)C(=O)NC2(C(=O)NCCOCCOCCNC(=O)CCC(=O)NCCOCCOCCNC(=O)CCC(=O)N[C@@H](CCCCNC(=O)CN3CCCN4CCN(CCCN(CP(=O)(O)O)CC4)CC3)C(N)=O)CCCCC2)cc1 [copper-64 labelled] | PET/CT | C57BL/6 mice, B16-F10 tumour | intravenous, 2 h, with: LLP2A 100 µg blocking | tumour to background ratio | 8.2 ± 0.8
Nc1nc2[nH]cc(CCc3ccc(C(=O)N[C@@H](CCC(=O)N[C@@H](Cc4ccccc4)C(=O)N[C@@H](Cc4ccccc4)C(=O)N[C@@H](CCC(=O)O)C(=O)N[C@@H](CCC(=O)O)C(=O)O)C(=O)O)cc3)c2c(=O)[nH]1 | conventional TEM | 1× DPBS | 24 h, room temperature, aged, self-assembled | nanofiber diameter | 9.1 ± 1.4 nm
Cc1ccccc1NC(=O)Nc1ccc(CC(=O)N[C@@H](CCCCNC(=O)/C=C/c2cccnc2)C(=O)N[C@@H](CCCC(=O)O)C(=O)NC2(C(=O)NCCOCCOCCOCCOCCC(=O)N[C@@H](CCCCNC(=O)CN3CCN(CC(=O)O)CCN(CC(=O)O)CCN(CC(=O)O)CC3)C(N)=O)CCCCC2)cc1 [lutetium-177 labelled] |  | C57BL/6 mouse, tumour and VLA-4-positive tissues | intravenous, 24 h, with: LLP2A-PEG4 100 µg (1100-fold) blocking | tissue uptake | ≤ 0.2 %ID/g
melittin | CD titration | POPC 100% POPG 0% vesicles | pH 7.0, 50 °C | free energy of partitioning | -5.9 kcal/mol
N=C(N)NCCC[C@@H]1NC(=O)[C@H](CCCCNC(=O)[C@H](CC(=O)O)NC(=O)[C@H](CC(=O)O)NC(=O)[C@H](CC(=O)O)NC(=O)CC[C@H](NC(=O)CCOCCOCCOCCOCCNC(=O)c2ccc(NN)nc2)C(=O)N[C@@H](CC(=O)O)C(=O)N[C@@H](CC(=O)O)C(=O)N[C@@H](CC(=O)O)C(=O)NCCCC[C@@H]2NC(=O)[C@@H](Cc3ccccc3)NC(=O)[C@H](CC(=O)O)NC(=O)CNC(=O)[C@H](CCCNC(=N)N)NC2=O)NC(=O)[C@@H](Cc2ccccc2)NC(=O)[C@H](CC(=O)O)NC(=O)CNC1=O [technetium-99m labelled] | γ-counting | female athymic nude mice, U-87 MG xenograft, blood | intravenous, 0.5 h | tissue uptake | 1.23 ± 0.38 %ID/g

Some of these lines once more:
Substance | test | test system | setting | endpoint | result
COc1cccc2c1C(=O)c1c(O)c3c(c(O)c1C2=O)C[C@@](O)(C(=O)CO)C[C@@H]3O[C@H]1C[C@H](NC(=O)[C@H](CC(C)C)NC(=O)[C@H](C)NC(=O)[C@H](CC(C)C)NC(=O)CCNC(=O)CCC(=O)O)[C@H](O)[C@H](C)O1 |  | mouse, E0771 tumour-bearing, kidney | intravenous, 92 µmol/kg | terminal half-life | 10.7 h
